Experimental data of several laboratories.
Each line is one published result; not all experiments were run side by side. Several values in a cell are separate wells, animals, samples, runs or records. ± gives the spread as reported.
rep main protease: Replicase polyprotein 1ab, main protease (rep, Severe acute respiratory syndrome coronavirus 2, UniProt P0DTD1)

| Compound | tested on | assay | test system | setting | how to read | quantity | result |
| --- | --- | --- | --- | --- | --- | --- | --- |
| Nc1ncnc2c1ncn2[C@H]1C[C@H](O)[C@@H](COP(=O)(O)OP(=O)(O)OP(=O)(O)O)O1 | Gag-Pol polyprotein, reverse transcriptase (gag-pol, Human immunodeficiency virus type 1 group M subtype B, UniProt P04585, K653N) | substrate | – | K66N mutant, together with: matched T:A primer template | – | Km | 0.0853 ± 0.0223 µM |
| c1cc(CN2CCCNCCNCCCNCC2)ccc1CN1CCCNCCNCCCNCC1 | rep main protease | – | HEK293T | 20 µM | – | inhibition | 0.392% |
| Nc1ncnc2c([C@@H]3N[C@H](CO)[C@@H](O)[C@H]3O)c[nH]c12 | Marburg virus | surface glycoprotein expression | HeLa, Musoke | 100 µM, 1 h | – | inhibition | 95.5% |
| CNC(=O)[C@@H](NC(=O)[C@H](CC(C)C)[C@H](O)C(=O)NO)C(C)(C)C | rep main protease | reporter gene (Gaussia luciferase), inhibitor | – | 20 µM | – | inhibition | -1.26% |
| CC[C@H](C)[C@H](NC(=O)[C@H](CC(C)C)NC(=O)[C@H](Cc1c[nH]c2ccccc12)NC(=O)[C@H](CCC(N)=O)NC(=O)[C@@H](NC(=O)[C@H](Cc1ccccc1)NC(=O)[C@H](C)NC(=O)[C@H](CCCCNC(=O)COCCOCCNC(=O)COCCOCCNC(=O)CC[C@H](NC(=O)CCCCCCCCCCCCCCCCCCC(=O)O)C(=O)O)NC(=O)[C@H](CCC(N)=O)NC(=O)[C@H](C)NC(=O)[C@@H](NC(=O)[C@H](CCCCN)NC(=O)[C@H](CC(=O)O)NC(=O)[C@H](CC(C)C)NC(=O)C(C)(C)NC(=O)[C@@H](NC(=O)[C@H](CO)NC(=O)[C@H](Cc1ccc(O)cc1)NC(=O)[C@H](CC(=O)O)NC(=O)[C@H](CO)NC(=O)[C@@H](NC(=O)[C@H](Cc1ccccc1)NC(=O)[C@@H](NC(=O)CNC(=O)[C@H](CCC(=O)O)NC(=O)C(C)(C)NC(=O)[C@@H](N)Cc1ccc(O)cc1)[C@@H](C)O)[C@@H](C)O)[C@@H](C)CC)[C@@H](C)CC)C(C)C)C(=O)N[C@@H](C)C(=O)NCC(=O)NCC(=O)N1CCC[C@H]1C(=O)N[C@@H](CO)C(=O)N[C@@H](CO)C(=O)NCC(=O)N[C@@H](C)C(=O)N1CCC[C@H]1C(=O)N1CCC[C@H]1C(=O)N1CCC[C@H]1C(=O)N[C@@H](CO)C(N)=O | – | measured: treatment-emergent catheter site erythema | healthy subjects | 0.5 mg, multiple ascending dose | – | subjects with adverse event | 0% |
| O=C(c1ccc(=O)[nH]c1)N1CCCC[C@H](C2CN(C(=O)c3cncc4[nH]ccc34)C2)C1 | rep main protease | enzyme activity, inhibitor | – | 5 µM, mean of runs | – | inhibition | 16.7% |
| CSCC[C@H](NC(=O)[C@H](CCCNC(=N)N)NC(=O)[C@H](Cc1ccccc1)NC(=O)[C@H](CS)NC(=O)[C@H](C)NC(=O)[C@@H](NC(=O)[C@@H](NC(=O)[C@H](C)NC(=O)[C@H](CCCNC(=N)N)NC(=O)[C@H](CCCNC(=N)N)NC(=O)[C@H](CCCNC(=N)N)NC(=O)[C@H](CCC(N)=O)NC(=O)[C@H](CCCCN)NC(=O)[C@H](CO)NC(=O)[C@H](CC(C)C)NC(=O)[C@H](CC(C)C)NC(=O)[C@H](CCCCN)NC(=O)[C@H](Cc1c[nH]cn1)NC(=O)[C@H](Cc1c[nH]c2ccccc12)NC(=O)[C@@H](NC(=O)[C@H](C)NC(=O)[C@H](CCCCN)NC(=O)[C@H](CCCCN)NC(=O)[C@H](CO)NC(=O)[C@H](CCCCN)NC(C)=O)C(C)C)C(C)C)C(C)C)C(=O)N[C@H](C(=O)N1CCC[C@H]1C(=O)N[C@@H](CC(C)C)C(=O)N[C@@H](Cc1ccc(O)cc1)C(=O)N[C@@H](CC(N)=O)C(N)=O)[C@@H](C)O | calmodulin 1-80 sites I and II | calcium binding, Phe fluorescence titration | – | 12 µM, pH 7.4, 22 °C, together with: 6 µM calmodulin | – | apparent ΔG2 | -15.36 ± 0.11 kcal/mol |
| O=C(N[C@@H](CNC(=O)[C@@H]1CCCc2cn[nH]c21)c1ccc2ccccc2c1)c1cccnc1 | rep main protease | enzyme activity, inhibitor | – | 5 µM, run 1 | – | inhibition | 13.6% |
| CNC(=O)[C@@H](NC(=O)[C@H](CC(C)C)[C@H](O)C(=O)NO)C(C)(C)C | snake venom metalloproteinase | proteolytic activity, inhibitor | Daboia russelii, venom MP | together with: azocasein | – | IC50 | 1500 nM and 1520 nM |
| CCN(CC)c1nc(C)cc(OP(=S)(OC)OC)n1 | uncharacterized protein (Anopheles coluzzii, UniProt A0A6E8VQK1) | enzyme activity, inhibitor | Sf9 cell homogenate | 0.004587 µM, 0.1667 h, together with: α-naphthyl acetate substrate | reference: no inhibitor | remaining activity | 110% |
| Cc1conc1C(=O)N1Cc2ccccc2C[C@H]1CNC(=O)c1cccc2[nH]ncc12 | rep main protease | enzyme activity, inhibitor | – | 5 µM, run 2 | – | inhibition | 10.8% |
| COC(=O)C[C@H](NC(=O)OC(C)(C)C)C(=O)CF | rep main protease | reporter gene (mKate2), inhibitor | – | 20 µM | – | inhibition | -0.647% |
| Cn1cnc(Cn2c(=O)[nH]/c(=N\c3cc4cn(C)nc4cc3Cl)n(Cc3cc(F)c(F)cc3F)c2=O)n1 | – | – | human, normal renal function | oral, 375 mg, vessel puncture site haemorrhage TEAE, Severe severity | – | patients with adverse event | 0% |

Some of these lines once more:
| Compound | tested on | assay | test system | setting | how to read | quantity | result |
| --- | --- | --- | --- | --- | --- | --- | --- |
| c1cc(CN2CCCNCCNCCCNCC2)ccc1CN1CCCNCCNCCCNCC1 | rep main protease | – | HEK293T | 20 µM | – | inhibition | 0.392% |
